Measured values gathered from unrelated publications.
Numbered parts are unrelated; each lists some results of a single study. Positions count from the first letter of the parent shown.

Sample 1
Target: PABPC1L2, full length, GST fusion (mouse, UniProt A0ABA7IW68)
Method: RNAcompete
Form: RNA
Medium: in vitro
Tested at: 20 nM
Setting: 7-mer, probes averaged, single round
Baseline: mean of 7-mers
Reading: higher = stronger binding
Residues (chain): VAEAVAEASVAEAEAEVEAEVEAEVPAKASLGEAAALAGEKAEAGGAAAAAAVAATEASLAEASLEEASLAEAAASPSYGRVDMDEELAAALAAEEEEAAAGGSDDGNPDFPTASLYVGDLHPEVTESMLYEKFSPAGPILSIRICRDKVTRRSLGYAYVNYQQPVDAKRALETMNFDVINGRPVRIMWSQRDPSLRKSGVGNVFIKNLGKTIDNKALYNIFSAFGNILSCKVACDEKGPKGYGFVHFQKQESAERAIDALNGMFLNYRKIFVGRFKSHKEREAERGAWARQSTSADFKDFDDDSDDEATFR
Oligonucleotide	7-mer Z-score
GACCGGA	-0.188
UAGUCAU	-0.273
AUCGGGG	0.425
AGGAACG	0.151
GUGUACA	0.0841
UAUCACC	-0.284
GUGCGAU	-0.142
AGAGUAC	-0.235

Sample 2
Target: JDP2, bZIP domain (human)
Method: DHFR protein complementation
Medium: yeast
Setting: single substitutions, most at no-binding floor
Baseline: wild-type JUN-FOS pair
Reading: higher = stronger binding
Parent: JUN, bZIP domain (human); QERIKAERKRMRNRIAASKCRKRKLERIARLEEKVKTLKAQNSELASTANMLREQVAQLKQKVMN; partner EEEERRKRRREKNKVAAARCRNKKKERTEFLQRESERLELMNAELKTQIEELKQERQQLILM
Variant	binding fitness [natural log]
K36C	0.367
R30A	0.397
E54Q	0.0035
S47Q	0.258
K39Q	0.248
K39I	0.228
E33A	0.282
I28C	0.194

Sample 3
Target: Phosphate system positive regulatory protein PHO4, full length, GST-tagged (PHO4, Saccharomyces cerevisiae, UniProt P07270, residues 1-312)
Method: competition protein-binding microarray
Form: double-stranded DNA, one strand shown
Medium: in vitro
Tested at: 2 µM
Setting: whole 60-bp probe, lowest competitor level
With: Cbf1 competitor, 0.05 µM
Reading: higher = stronger binding
Shared flanks, not repeated: … GTCTTGATTCGCTTGACGCTGCTG
Target sequence (chain): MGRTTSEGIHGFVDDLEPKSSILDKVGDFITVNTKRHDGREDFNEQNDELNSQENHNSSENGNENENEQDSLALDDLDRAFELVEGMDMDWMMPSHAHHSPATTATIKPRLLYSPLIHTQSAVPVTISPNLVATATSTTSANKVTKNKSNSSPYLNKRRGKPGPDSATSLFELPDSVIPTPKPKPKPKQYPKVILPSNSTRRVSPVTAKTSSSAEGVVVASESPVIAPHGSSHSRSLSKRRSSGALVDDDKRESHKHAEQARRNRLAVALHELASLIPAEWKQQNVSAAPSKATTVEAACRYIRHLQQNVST
Oligonucleotide	fluorescence intensity [a.u.]
CTAACGAAGGTTTGTCATGTGGGTGACAAGCCAAGT	9370
CTTCTGTAAATTTGTCACCCCACTTGACGCGCCCCG	3880
GCTTTCCCAGCGATGCTCGTGTGGAGGACCGAACAT	7370
TCGAGAACTTAGGGTAGCGTGCCAGAAAATTTGCAT	7380
CTTTCCCGATCTTGGTTAGTGGGTGTAGCACATTTG	4770
AAATTACTAAGTTGAGAGGTGGGTGACGCCGTATGA	3740
GATTTGAATCCAATTCACGTTTCAAGTCATTTTGCC	7630
ACCAAGACTAACGGCCACGCTGCACCAACCACCAAG	8550

Single results of other studies
Sequence	target	assay	test system	setting	measurement	result
SMHYKLDEV	HLA class I histocompatibility antigen, A alpha chain, allele A*80:01 (Homo sapiens, UniProt P04439)	peptide-MHC binding	peptide	concentration not given	binding	inactive

Some of these lines once more (sample 2):
Variant	binding fitness [natural log]
I28C	0.194
K36C	0.367
E33A	0.282
